Assay results collected from several papers.
Compare with care: the assays were run in different laboratories. Converted amounts (≈) assume the structure as drawn.

`C[C@]12C[C@H](c3ccc(S(C)(=O)=O)cc3)C3=C4CCC(=O)C=C4CC[C@H]3[C@@H]1CC[C@@]2(O)C(F)(F)C(F)(F)F` gave an aqueous solubility of 9 µg/mL (≈ 16.5 µM) (nephelometry).
For `CCCC1CCCc2c1[nH]c(=O)c(C#N)c2-c1ccc(C)cc1` (stereo not drawn), aqueous solubility read “not detected” (precipitation; PBS, from DMSO stock; concentration not given).
`OC(CN1CCC2(CC1)CC(O)c1ccc3ccccc3c1O2)c1ccc(F)c(F)c1` (stereo not drawn) has an aqueous solubility of 10 to 60 µg/mL (≈ 23.5 to 141 µM) (UV absorbance; pH 7.4).
The aqueous solubility of `COc1ccc(N2CCOCC2)c2sc(NC(=O)c3ccnc(CN4CCCC4)c3)nc12` is reported as 90 µg/mL (≈ 198 µM) (buffer; 7 days, pH 8.0, room temperature, final pH 7.96).
The aqueous solubility of `CC(C)CCCC(C)CCCC(C)CCOC1OC[C@H](O)[C@H](O)[C@H]1O` (stereo partly drawn) is reported as 9.86 ppm (filtration and HPLC-MS; water; room temperature).
With `COc1ccc2c(c1)c(CC(=O)Nc1nnc(CCCCc3ccc(NC(=O)Cc4cccc(OC(F)(F)F)c4)nn3)[se]1)cn2C` the aqueous solubility was less than 1 µg/mL (saline or PBS).
With `O=C(Cc1ccccc1)Nc1nc2ccccc2n1Cc1ccccc1` the aqueous solubility was 1.7 µg/mL (≈ 4.98 µM) (shake-flask; pH 7.0).
`CN1CCC(NC(=O)c2ccc(-c3cc(-c4ccc(F)cc4)c4oc5c(c4c3)CCN(C(=O)/C=C/c3ccc(N)nc3)C5)nn2)C(F)(F)C1` (stereo not drawn) has an aqueous solubility of 30000 µg/mL (HCl salt).
`CC(C)CCCC(C)CCCC(C)CCOC1O[C@H](CO)[C@@H](O)[C@H](O)[C@@H]1O` (stereo partly drawn) has an aqueous solubility of 7.68 ppm (filtration and HPLC-MS; water; room temperature).

A few entries again:
`CC(C)CCCC(C)CCCC(C)CCOC1O[C@H](CO)[C@@H](O)[C@H](O)[C@@H]1O` (stereo partly drawn) has an aqueous solubility of 7.68 ppm (filtration and HPLC-MS; water; room temperature).
